Results pooled from the literature.
Each numbered part is a random draw from the data of one study; scales do not carry over between parts.

Block 1 — technique: universal PBM; form: double-stranded DNA, one strand shown; sample: in vitro; concentration: 600 nM; direction: higher = stronger binding
Target: Sal-like protein 4, full length isoform A (SALL4, Homo sapiens, UniProt Q9UJQ4, residues 1-1053)
Sequence of UniProt Q9UJQ4 (whole entry, looked up): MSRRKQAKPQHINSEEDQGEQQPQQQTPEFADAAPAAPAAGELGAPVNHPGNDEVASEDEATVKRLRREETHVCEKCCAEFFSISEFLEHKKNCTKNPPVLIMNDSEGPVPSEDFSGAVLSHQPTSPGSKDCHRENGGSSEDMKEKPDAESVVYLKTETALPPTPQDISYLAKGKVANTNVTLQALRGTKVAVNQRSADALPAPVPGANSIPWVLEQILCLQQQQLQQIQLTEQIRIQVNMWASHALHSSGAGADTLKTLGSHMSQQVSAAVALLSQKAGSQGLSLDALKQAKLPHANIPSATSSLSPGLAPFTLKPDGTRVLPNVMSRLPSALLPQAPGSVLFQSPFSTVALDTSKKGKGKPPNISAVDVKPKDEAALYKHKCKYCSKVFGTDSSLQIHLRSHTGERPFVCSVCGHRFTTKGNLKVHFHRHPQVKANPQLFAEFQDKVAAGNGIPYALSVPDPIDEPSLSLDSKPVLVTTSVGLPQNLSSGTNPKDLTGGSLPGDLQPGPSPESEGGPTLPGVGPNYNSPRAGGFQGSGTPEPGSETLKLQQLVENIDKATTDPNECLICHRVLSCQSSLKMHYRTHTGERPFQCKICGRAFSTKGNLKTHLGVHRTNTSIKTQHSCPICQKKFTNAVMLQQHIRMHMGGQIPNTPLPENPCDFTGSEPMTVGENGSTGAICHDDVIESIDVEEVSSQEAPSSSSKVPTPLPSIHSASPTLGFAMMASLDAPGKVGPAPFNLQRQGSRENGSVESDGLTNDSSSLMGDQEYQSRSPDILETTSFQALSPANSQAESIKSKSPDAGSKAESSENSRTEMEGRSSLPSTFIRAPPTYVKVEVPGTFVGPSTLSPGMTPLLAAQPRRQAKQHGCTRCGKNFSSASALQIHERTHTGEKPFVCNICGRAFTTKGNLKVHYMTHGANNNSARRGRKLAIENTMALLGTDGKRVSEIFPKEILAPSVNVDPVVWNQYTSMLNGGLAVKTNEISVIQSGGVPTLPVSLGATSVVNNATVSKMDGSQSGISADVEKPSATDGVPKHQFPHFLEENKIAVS
Setting: 8-mer, flanks averaged, mean of replicates
Strand | E-score
CGCACAAC | 0.00093
ACCATTCT | 0.04
ACCCAAAA | -0.056
ATATTAAC | 0.397
AGCAGTGC | -0.172
GGCATAGA | -0.0497
AATCCAAC | 0.0667
TGAATGAA | 0.218
GGCCCTTA | -0.123
CCTTCCAG | -0.207
GCACTACC | 0.0299
GAGCACTC | -0.175
AAGGACGG | -0.187
CCCCGGAC | -0.31
ACCGGCCG | -0.376
AGCCATTG | 0.0445
AAGAACGA | 0.0752
CAAAGCAC | 0.0287
ATTGCTAA | 0.29
ACGAATCG | 0.0295
CATGAATC | 0.0554

Block 2 — technique: RNA Bind-n-Seq; form: RNA; sample: in vitro; concentration: 200 nM; setting: whole 134-nt RNA, ends assumed; together with: 150 mM LiCl; relative to: input library; direction: higher = stronger binding; each molecule: 7-deaza-guanosine replaces G
Target: Ras GTPase-activating protein-binding protein 1, full length (G3BP1, Homo sapiens, UniProt Q13283)
Sequence of UniProt Q13283 (whole entry, looked up): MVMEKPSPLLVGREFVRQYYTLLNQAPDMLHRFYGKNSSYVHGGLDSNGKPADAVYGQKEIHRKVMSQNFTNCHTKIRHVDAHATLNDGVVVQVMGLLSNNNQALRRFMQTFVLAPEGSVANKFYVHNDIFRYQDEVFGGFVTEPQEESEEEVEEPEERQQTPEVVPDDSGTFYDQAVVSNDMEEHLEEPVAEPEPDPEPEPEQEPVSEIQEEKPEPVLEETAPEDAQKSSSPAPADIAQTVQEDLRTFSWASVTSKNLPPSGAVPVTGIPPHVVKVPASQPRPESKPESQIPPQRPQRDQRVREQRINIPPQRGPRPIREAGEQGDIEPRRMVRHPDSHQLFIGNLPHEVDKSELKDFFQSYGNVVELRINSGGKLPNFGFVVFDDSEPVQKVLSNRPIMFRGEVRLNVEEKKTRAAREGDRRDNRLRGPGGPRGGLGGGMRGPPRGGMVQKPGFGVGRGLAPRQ
All sequences stand within: GGGAGUUCUACAGUCCGACGAUC … UGGAAUUCUCGGGUGUCAAGG
Strand | log2 enrichment
AAAUGGUAGUGUGCGGAGUUUUUUUUUCUUCCUUCUUUUAAAAAUGGUUGUUUAAGACUUUAACAAUGGGAACCCCUUGUGAGCAUGCUC | -2.2
ACCAUGCAGGUGGGCAUCUUUGGGAAGUGGGGCAAGGGGUGGAUAGGGAGGGGGGUAACACUUUGGGAACAGGUGGUCCCAGGUCGUUUC | 0.347
GUCCUGUGCUACACAUCGUAUGUACCGAAUCGGGGCCCCCGGCCCCCGGGGCCCCCGGAAAGUAUUAUGUUACGCCGUUCGGAUCUGCAC | -2.16
UCAAGUCCUGUGCUACACAUCGUAUGUACCGAAUCGGGAGGGUUUUUGGGUGGGAAAGUAUUAUGUUACGCCGUUCGGAUCUGCACUUCC | 0.029
CCUGUGCUACACAUCGUAUGUACCGAAUCGGGGAAAAAAAGGGGUUUUUGGGGAAAGGGGAAAGUAUUAUGUUACGCCGUUCGGAUCUGC | 0.311
CUCAAGUCCUGUGCUACACAUCGUAUGUACCGAAUCGGUUUUUUUGGUGGAGGAAAGUAUUAUGUUACGCCGUUCGGAUCUGCACUUCCA | 0.296
GCUGUUCUUGCCUUAGCUGCAUCUUGGACCUCAAGACAAGUAGGAGAACGGACGUUGACCGGUACGGUAAUAGACAGUGGAGAUGGUGUC | -1.64
CUGUGCUACACAUCGUAUGUACCGAAUCGGGGAAAAAGGGGUUUUUUUGGGGAAAAAGGGGAAAGUAUUAUGUUACGCCGUUCGGAUCUG | -0.694
UGGCCCUGGUGGCAUGCGGGGAGGACGAGGUGGCCUCAUGGAUCGUGGUGGUCCCGGUGGAAUGUUCAGAGGUGGCCGUGGUGGAGACAG | -0.0179
CACAGACAACACGCACCCACACAGACACAGAGGGAAGGGGUUGGGUUGGGGACAGGGUGCACAGCAGGGCGGGGUAGGACCCCAGCCCCU | -0.492
ACCAUGCAGGUGGGCAUCUUUGGGAAGUGGGGCAAGGGGGGGAUAGGGAGGGGGGUAACACUUUGGGACCAGGUGGUCCCAGGUCGUUUC | 0.498

Block 3 — technique: RNA Bind-n-Seq; form: RNA; sample: in vitro; concentration: 365 nM; relative to: no-protein control; direction: higher = stronger binding
Target: RNA binding protein fox-1 homolog 2, RRM domain, GST-SBP tag (RBFOX2, Homo sapiens, UniProt O43251-10, residues 100-194)
Setting: natural RNA segment, single round, ends assumed
All sequences stand within: GGGAGUUCUACAGUCCGACGAUC … UGGAAUUCUCGGGUGCCAA
Construct (chain): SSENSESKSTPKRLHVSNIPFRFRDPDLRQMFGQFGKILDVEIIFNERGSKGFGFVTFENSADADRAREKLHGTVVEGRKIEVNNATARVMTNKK
Strand | RBNS enrichment (R)
GUGGCCAUAGGGACCAGAAAGCAGCUUAGGAAAUCUAUCCAUUGGCCCUUUUAGAGUCUCUGUGUGAACCCAACUCUACUGAACUUAAACACCUUCCAAACAGUGGCAGG | 0.25
UUUAUACUCUCAGAUAGUUUGCUCCACAAAUUUUCAUUUCGUGAUUCUGUAUAUAUUGCCCUGAACUUUCUGUGAUCACAGAUUAAAAAUAUCUUUUGGUUCCAAAUAGA | 1.17
CUUCCUGUGAACUCACUCUGUGCCCCUGUUGUCCACAGGAUUCCAGUCUCCUGUUCUCAGUCAGGCUUCGCUUGAGGUCAGUGCUAUAAAAAUUGAAAGCUUCCAGAGAG | 0.618
GUAAAGAUCUAAAUUCCUAUGGAUAUUCAGUGGUCUUAGCACCAUGUGUUAAAAGGACUGCUUUUCCCCACUGUGUCCCUGUCAAAAAUCAACUGAACAUAUAUGUAAGA | 0.369
UGCAUGCAUCUGCAGGGCCUGUGAGAUCUGGUGUAAAAAGAGACAUGACAUGUGGAGAUGGGACUUAGUGUGUGAGGCAUAGGGUCAUUGGAGAUUCUUCAGACUCGGGG | 9.06
UCAGGCUUGUGCCACGGGUGAGCACUGAGGCCCCAGGUGUCCUCCCUCCCCCACUGUCUGGGACACAGGACAGGUGUUGCGUCUGACUCUGUCUCCCCCUGUCCAAGAGC | 0.442
UCGCAGGAGCAUUAACCUCCUGGAGACGGAGCUGGGAGGACUCGGUGCAUCCCUGUGUUGAUAGCUCCUGCUUCGGUAGGGAACUCUGAGAUCCUGCUUCCAUCUCCAGC | 0.481
AUACCUCUGCCACUUUGAAAAUUGUAACAGUUAAUUACUUUGAACAUUGCUAAAAGGACAUUUUGUGUAGGGUCAAGUUAUUUUUAUAUGAGUUAAUGUGAAGUUGUAAA | 0.389
GUUCCCCAGGGGAUCUCUGGGAAAGACACUACCGCAGCCACCGGACUCUUGGCGGAUCGGUCCAGUGGGUAGAGGGUUUGAUCAACAGAGCCUCACCCUCUCCACCUUUC | 0.267
AUGCUAAGAAGAAAAAGAAUUCCAAAUCCUCAACUUUUGAGGUUUCGGCUCUCCAAUUUAACUCUUUGGCAACAGGAAACAGGUUUUGCAAGUUCAAGGUUCACUCCCUA | 0.4
CAAAUAACUAAGUUUGGAGGUAUUUUCACUCUAUAUGAAUAAAUAUUUUUCCAUAAAAUAGUUGUGAUUAUAUUUUUGUUUUAUAUAGGUCCCAAAUUAUAAUUGUCAAA | 0.773
CUCCUUGUUCUGGGCUCCAGUUUUCCCAUUUGUGAGAUGAGGCAACUUCCAAUGCUUCUCUAGGCCCUGCACGUAAGUGAUUUUUCCAGUUCAAAGUCAAGACAGGUAAA | 0.364

Block 4 — technique: RNAcompete; form: RNA; sample: in vitro; concentration: 20 nM; setting: 7-mer, probes averaged, single round; relative to: mean of 7-mers; direction: higher = stronger binding
Target: PABPC1L2, full length, GST fusion (mouse, UniProt A0ABA7IW68)
Target sequence (chain): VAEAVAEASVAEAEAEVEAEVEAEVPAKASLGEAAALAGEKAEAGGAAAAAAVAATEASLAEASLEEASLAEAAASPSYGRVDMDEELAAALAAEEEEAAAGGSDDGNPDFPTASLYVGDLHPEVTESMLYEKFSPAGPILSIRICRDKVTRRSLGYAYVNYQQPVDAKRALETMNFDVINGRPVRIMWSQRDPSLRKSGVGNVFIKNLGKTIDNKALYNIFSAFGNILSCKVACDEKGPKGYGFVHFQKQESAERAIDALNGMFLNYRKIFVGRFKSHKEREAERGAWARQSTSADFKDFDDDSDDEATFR
Strand | 7-mer Z-score
AGUACCG | -0.108
CGGUACG | -0.0337
GCACCUC | -0.331
AGGAAUU | -0.0391
UUACAUU | -0.124
GCUAAGU | -0.18
GGAAGUA | -0.124
GCGCACU | -0.249
AAAACGA | 4.42
AGUUUUG | -0.411
GGGCUUC | -0.0863
GGACAGG | 0.285
CAAGUUC | -0.307
UUAGUUU | -0.436
UAGAUUG | -0.182
CAGAUGA | 0.0732
ACACACG | -0.021
GAUGCUU | -0.298
UCUGUGU | -0.383
CCAUUGC | -0.307
UAAAGGA | 0.43
CGCAAUA | -0.11

For quick reference, copied from above (block 1):
Strand | E-score
CCCCGGAC | -0.31
ACGAATCG | 0.0295
AGCAGTGC | -0.172
ATTGCTAA | 0.29
CATGAATC | 0.0554
GGCATAGA | -0.0497
GAGCACTC | -0.175
AAGAACGA | 0.0752
CGCACAAC | 0.00093
AATCCAAC | 0.0667
CAAAGCAC | 0.0287
